Measured values collected from several papers.
Parts stem from different laboratories: compare values within a part only.

Study 1
Target: Sal-like protein 4, full length isoform A (SALL4, Homo sapiens, UniProt Q9UJQ4, residues 1-1053)
UniProt Q9UJQ4, sequence (whole entry, looked up): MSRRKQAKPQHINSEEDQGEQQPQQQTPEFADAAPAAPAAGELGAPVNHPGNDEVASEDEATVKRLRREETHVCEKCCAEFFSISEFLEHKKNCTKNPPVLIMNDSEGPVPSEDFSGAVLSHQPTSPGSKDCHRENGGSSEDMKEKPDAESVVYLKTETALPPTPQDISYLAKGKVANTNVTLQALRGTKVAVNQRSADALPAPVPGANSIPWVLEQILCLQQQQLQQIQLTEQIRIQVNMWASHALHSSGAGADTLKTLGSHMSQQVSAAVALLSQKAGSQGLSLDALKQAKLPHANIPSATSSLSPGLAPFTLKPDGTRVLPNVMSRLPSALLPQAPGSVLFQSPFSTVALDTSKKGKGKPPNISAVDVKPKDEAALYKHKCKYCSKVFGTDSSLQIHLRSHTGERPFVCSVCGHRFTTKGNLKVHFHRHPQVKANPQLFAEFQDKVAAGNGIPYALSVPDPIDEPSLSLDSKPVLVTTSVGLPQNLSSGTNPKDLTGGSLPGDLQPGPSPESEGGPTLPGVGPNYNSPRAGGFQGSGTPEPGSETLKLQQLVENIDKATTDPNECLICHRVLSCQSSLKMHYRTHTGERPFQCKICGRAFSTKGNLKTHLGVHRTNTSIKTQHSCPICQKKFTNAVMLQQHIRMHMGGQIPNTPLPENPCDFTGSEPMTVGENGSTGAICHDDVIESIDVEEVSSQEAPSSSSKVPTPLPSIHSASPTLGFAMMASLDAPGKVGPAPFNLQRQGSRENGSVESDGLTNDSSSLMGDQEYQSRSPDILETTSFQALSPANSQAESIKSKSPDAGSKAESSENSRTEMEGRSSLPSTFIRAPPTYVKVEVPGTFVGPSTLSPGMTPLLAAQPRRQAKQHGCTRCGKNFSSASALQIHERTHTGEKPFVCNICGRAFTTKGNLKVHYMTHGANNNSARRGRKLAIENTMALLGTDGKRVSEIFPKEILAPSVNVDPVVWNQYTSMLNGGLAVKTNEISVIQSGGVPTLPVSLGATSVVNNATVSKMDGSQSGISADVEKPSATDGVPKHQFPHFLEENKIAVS
Method: universal PBM
Form: double-stranded DNA, one strand shown
Medium: in vitro
Tested at: 600 nM
Notes: 8-mer, flanks averaged, mean of replicates
Direction: higher = stronger binding
With `CTACCCGC` the E-score was -0.277.
For `ACGTTCTC`, the E-score was 0.0878.
For `TATCGTAA`, the E-score was 0.178.
`CTAAAAAG` gave an E-score of 0.194.
`TATGCCAA` has an E-score of 0.187.
With `CCAGAGTA` the E-score was -0.119.
`CCGGTGCG` has an E-score of -0.358.
`ACGTCACA` has an E-score of 0.0624.

Study 2
Target: Replicase polyprotein 1ab, nsp13 helicase (rep, Severe acute respiratory syndrome coronavirus 2, UniProt P0DTD1)
Action: inhibitor
Tested at: 20 µM
For `CC(C1=C(CCN(C)C)Cc2ccccc21)c1ccccn1` (stereo not shown), the inhibition was 5.8%.
`COc1ccccc1CC(=N)N1C[C@@H]2C(=O)CCC(c3ccccc3)(c3ccccc3)[C@@H]2C1` gave an inhibition of 29.2%.
`COC1=C(OC)C(=O)C(CCCCCCCCCCO)=C(C)C1=O` gave an inhibition of 1.61%.
With `CO[C@H]1[C@H](O)[C@H](O[C@H]2CC[C@@]3(C=O)[C@H](CC[C@@H]4[C@@H]3CC[C@]3(C)[C@@H](C5=CC(=O)OC5)CC[C@]43O)C2)O[C@@H](C)[C@@H]1O` the inhibition was 2.57%.
The inhibition of `C[C@H](CCC(=O)O)[C@H]1CC[C@H]2[C@@H]3[C@H](O)C[C@@H]4C[C@H](O)CC[C@]4(C)[C@H]3CC[C@]12C` is reported as 10.3%.
`Nc1cc(Cl)c(N=C2NCCN2)c(Cl)c1` gave an inhibition of 5.97%.
`O=c1[nH]c2ccccc2c(=O)n1CCCN1CCN(c2ccccc2)CC1` gave an inhibition of -1.35%.
The inhibition of `COc1cc2c(cc1O)C(CCc1ccc(Cl)cc1)N(C)CC2` (stereo not shown) is reported as 1.52%.
`CC(C)C[C@@H]1NC(=O)[C@@H](C(C)C)NC(=O)[C@@H]2CCCN2C(=O)[C@@H](CC(=O)O)NC(=O)[C@@H](Cc2c[nH]c3ccccc23)NC1=O` has an inhibition of 9.02%.
`CCCNC(C)C(=O)Nc1c(C)csc1C(=O)OC` (stereo not shown) has an inhibition of -1.48%.
`CC(=O)C1=C(O)C=C2Oc3c(C(C)=O)c(O)c(C)c(O)c3C2(C)C1=O` (single isomer, unassigned; (+)) has an inhibition of 3.9%.
For `C=C(c1ccc(C(=O)O)cc1)c1cc2c(cc1C)C(C)(C)CCC2(C)C`, the inhibition was 3.54%.
The inhibition of `COc1cccc([C@H](O)C2CCN(CCc3ccc(F)cc3)CC2)c1OC` is reported as -0.91%.
`CC(=O)NO` has an inhibition of -2.79%.
With `CCNC(=O)CC[C@H](N)C(=O)O` the inhibition was 1.59%.
`NCCCC[C@H](NC(=O)[C@@H]1CCCN1C(=O)[C@@H]1CSSC[C@H](NC(=O)CNC(=O)CNC(=O)CN)C(=O)N[C@@H](Cc2ccc(O)cc2)C(=O)N[C@@H](Cc2ccccc2)C(=O)N[C@@H](CCC(N)=O)C(=O)N[C@@H](CC(N)=O)C(=O)N1)C(=O)NCC(N)=O` gave an inhibition of 1.93%.
With `NC(=O)C[S@@+]([O-])C(c1ccccc1)c1ccccc1` the inhibition was 5.9%.
The inhibition of `Nc1nc(=O)c2nc(CNc3ccc(C(=O)N[C@@H](CCC(=O)O)C(=O)O)cc3)cnc2[nH]1` is reported as -1.84%.
`CC(C)N(CCC(C(N)=O)(c1ccccc1)c1ccccn1)C(C)C` (stereo not shown) has an inhibition of 0.2%.
`C[C@H](CS)C(=O)N1CCC[C@H]1C(=O)O` gave an inhibition of 5.68%.
The inhibition of `CC(C)(C)c1nc(-c2cccc(NS(=O)(=O)c3c(F)cccc3F)c2F)c(-c2ccnc(N)n2)s1` is reported as 2.92%.
`CCCCCCCCCCCCCCCCCC(=O)OC[C@@H](O)[C@H]1OC[C@H](O)[C@H]1O` gave an inhibition of 3.82%.
The inhibition of `O=c1cc(N2CCOCC2)oc2c(-c3ccccc3)cccc12` is reported as 8.95%.
The inhibition of `CCNC(=O)C[C@@H]1N=C(c2ccc(Cl)cc2)c2cc(OC)ccc2-n2c(C)nnc21` is reported as -2.23%.
The inhibition of `CCS(=O)(=O)Nc1ccc2c(c1)/C(=C(/Nc1ccc(CN3CCCCC3)cc1)c1ccccc1)C(=O)N2` is reported as 10.9%.

Study 3
Target: RNA binding protein fox-1 homolog 2, RRM domain, GST-SBP tag (RBFOX2, Homo sapiens, UniProt O43251-10, residues 100-194)
Method: RNA Bind-n-Seq
Form: RNA
Medium: in vitro
Tested at: 365 nM
Notes: natural RNA segment, single round, ends assumed
Relative to: no-protein control
Direction: higher = stronger binding
Target sequence (chain): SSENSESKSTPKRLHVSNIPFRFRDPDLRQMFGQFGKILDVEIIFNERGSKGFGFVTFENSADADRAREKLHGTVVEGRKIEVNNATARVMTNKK
For `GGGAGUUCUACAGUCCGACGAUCGACUAUCCUGAAAAGAAAUAAUAAUCAUUUUAUGAUUGAUGGGCCAAAAAAAGCAAUCAAAGUCUUACGUCAUAGAGGACCACCUUUUGGAUCAUAAAUUCUUUCCCUAUUGGAAUUCUCGGGUGCCAA`, “RBNS enrichment (R)” read 0.287.
`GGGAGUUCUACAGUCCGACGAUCUUUUCAUCUGAUUAUGUUAGGCCCUAGCUCUAGGUCAGCCCUGCUGGGCCCUUGAGAGGGGCUCUGUGGCUGCAGAGCUGUUUUUACCCUGACAACUGGGUUUGUCCUCCUGGAAUUCUCGGGUGCCAA` — result for “RBNS enrichment (R)”: 0.226.
Under “RBNS enrichment (R)”, `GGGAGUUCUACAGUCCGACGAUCUUUUGCAUUGAACAUUAAUGUAGCGGAUAUAAUUUGAUGAUUAUACUUCAUUAGAUUUAAUUUCUAGGCCAAGAUGUUACUUUUUAAAGUGCAGUUUAAGGUUCAGGCAUUGGAAUUCUCGGGUGCCAA` is recorded as 0.327.
Under “RBNS enrichment (R)”, `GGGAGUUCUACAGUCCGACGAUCUGACAAGAAGAAGAACAAGUGCUUGUUAGGUGAGAGCAUUUCUUGCCUCCUAUUCACCCUGAACCUGGAGGCUAGACCUGAGGGAGUCGGACUGAGGGAUUGCAGAUGGGUGGAAUUCUCGGGUGCCAA` is recorded as 0.993.
Under “RBNS enrichment (R)”, `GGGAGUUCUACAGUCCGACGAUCAAGGGAGAGGAAGACAUUUUGAAUUUUAAGAGCUUUAUUAUCAGUUUAACCCUCCCUAGUUGAAUGUUAUUUUCUUCUUGUUCCAUUAAGUCAGAAUACAAAUCAGCACAUGGAAUUCUCGGGUGCCAA` is recorded as 0.459.
For `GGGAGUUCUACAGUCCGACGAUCGUACCCGGUGUCAGAACAUUUAAGCGUUCUAAAUAAUUUUGUGCUGCUAUCCAUCAGAACGUCUAUUCCAGCCUUGCCAGCUUAAGAACUUAGAGAAAUUAAGAGGUAUCUGGAAUUCUCGGGUGCCAA`, “RBNS enrichment (R)” read 0.857.
`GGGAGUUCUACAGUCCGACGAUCUUUGCACAAUGUCUUUGGUUGCAAGUCAUAAGCCUGAGGCAAAUAAAAUUCCAGUAAUUUCGAAGAAUGUGGUGUUGGUGCUUUCCUAAUAAAGAAAUAAUUUAGCUUGAUGGAAUUCUCGGGUGCCAA` — result for “RBNS enrichment (R)”: 5.66.
`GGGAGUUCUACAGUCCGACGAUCCUAAAAUCUGAUUUGCAGCCAGGAAAGAAUUUUCUCACCCAAGGAACAUUUGAUCUAGCAGCAGGGAUGAGAGGAAAGCAGAAAUGAAUGAACUGUGAAAGCUCCUGUUUUGGAAUUCUCGGGUGCCAA`: “RBNS enrichment (R)” 0.566.

Study 4
Target: Histone acetyltransferase KAT6A, winged helix 1, GST fusion (KAT6A, Homo sapiens, UniProt Q92794, residues 1-85)
Method: protein binding microarray
Form: double-stranded DNA, one strand shown
Medium: in vitro
Tested at: not given
Notes: 8-mer, flanks averaged, mean of 2 arrays, mostly near background
Relative to: not given
Direction: higher = stronger binding
Construct (chain): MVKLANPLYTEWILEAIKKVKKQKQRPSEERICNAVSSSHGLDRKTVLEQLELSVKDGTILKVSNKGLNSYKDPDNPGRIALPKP
The E-score of `CATATACG` is reported as 0.0606.
With `AATTATGA` the E-score was 0.0709.
For `CGGCTCTA`, the E-score was 0.303.
`ATTGGGCA` has an E-score of -0.199.
With `AGCCCATA` the E-score was -0.154.
`AAGGACTC` gave an E-score of 0.0544.
With `CCGGTTGA` the E-score was 0.193.
`GCATGAGC` has an E-score of -0.00468.

Study 5
Target: Replicase polyprotein 1ab, 3C-like proteinase (rep, Middle East respiratory syndrome-related coronavirus, UniProt K9N7C7)
Observed: enzyme activity
Action: inhibitor
Tested at: 10 µM
For `[O-][S+](c1ccccc1)c1ccc2nnnn2n1` (stereo not shown), the inhibition was 49.5%.
`Nc1ccc(S(=O)(=O)Nc2ncccn2)cc1` gave an inhibition of 22%.
`Nc1nnc(Sc2ncc([N+](=O)[O-])s2)s1` gave an inhibition of 45%.

Study 6
Cell line: HEK-293T
Observed: pseudovirus infection
Method: FDA-approved drug library screen
Organism: VSV pseudotyped with SARS-CoV-2 spike
Tested at: 10 µM
Time: 16 h
Relative to: vehicle-treated
`CC(C)OC(=O)C(C)(C)Oc1ccc(C(=O)c2ccc(Cl)cc2)cc1` has a GFP-positive cells of 79.5%.
The GFP-positive cells of `COCCc1ccc(OCC(O)CNC(C)C)cc1` (stereo not shown) is reported as 83.9%.
For `CC(C)(C)NC(=O)[C@H]1CC[C@H]2[C@@H]3CC[C@H]4NC(=O)C=C[C@]4(C)[C@H]3CC[C@]12C`, the GFP-positive cells was 99.3%.

For quick reference, copied from above (study 3):
For `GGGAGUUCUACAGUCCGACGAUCGACUAUCCUGAAAAGAAAUAAUAAUCAUUUUAUGAUUGAUGGGCCAAAAAAAGCAAUCAAAGUCUUACGUCAUAGAGGACCACCUUUUGGAUCAUAAAUUCUUUCCCUAUUGGAAUUCUCGGGUGCCAA`, “RBNS enrichment (R)” read 0.287.
`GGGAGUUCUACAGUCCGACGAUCUUUUCAUCUGAUUAUGUUAGGCCCUAGCUCUAGGUCAGCCCUGCUGGGCCCUUGAGAGGGGCUCUGUGGCUGCAGAGCUGUUUUUACCCUGACAACUGGGUUUGUCCUCCUGGAAUUCUCGGGUGCCAA` — result for “RBNS enrichment (R)”: 0.226.
Under “RBNS enrichment (R)”, `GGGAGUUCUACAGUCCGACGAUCUUUUGCAUUGAACAUUAAUGUAGCGGAUAUAAUUUGAUGAUUAUACUUCAUUAGAUUUAAUUUCUAGGCCAAGAUGUUACUUUUUAAAGUGCAGUUUAAGGUUCAGGCAUUGGAAUUCUCGGGUGCCAA` is recorded as 0.327.
Under “RBNS enrichment (R)”, `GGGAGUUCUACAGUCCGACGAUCUGACAAGAAGAAGAACAAGUGCUUGUUAGGUGAGAGCAUUUCUUGCCUCCUAUUCACCCUGAACCUGGAGGCUAGACCUGAGGGAGUCGGACUGAGGGAUUGCAGAUGGGUGGAAUUCUCGGGUGCCAA` is recorded as 0.993.
Under “RBNS enrichment (R)”, `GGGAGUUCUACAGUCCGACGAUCAAGGGAGAGGAAGACAUUUUGAAUUUUAAGAGCUUUAUUAUCAGUUUAACCCUCCCUAGUUGAAUGUUAUUUUCUUCUUGUUCCAUUAAGUCAGAAUACAAAUCAGCACAUGGAAUUCUCGGGUGCCAA` is recorded as 0.459.
For `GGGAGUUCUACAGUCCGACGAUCGUACCCGGUGUCAGAACAUUUAAGCGUUCUAAAUAAUUUUGUGCUGCUAUCCAUCAGAACGUCUAUUCCAGCCUUGCCAGCUUAAGAACUUAGAGAAAUUAAGAGGUAUCUGGAAUUCUCGGGUGCCAA`, “RBNS enrichment (R)” read 0.857.
`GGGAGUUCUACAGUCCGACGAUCUUUGCACAAUGUCUUUGGUUGCAAGUCAUAAGCCUGAGGCAAAUAAAAUUCCAGUAAUUUCGAAGAAUGUGGUGUUGGUGCUUUCCUAAUAAAGAAAUAAUUUAGCUUGAUGGAAUUCUCGGGUGCCAA` — result for “RBNS enrichment (R)”: 5.66.
`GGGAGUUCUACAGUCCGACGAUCCUAAAAUCUGAUUUGCAGCCAGGAAAGAAUUUUCUCACCCAAGGAACAUUUGAUCUAGCAGCAGGGAUGAGAGGAAAGCAGAAAUGAAUGAACUGUGAAAGCUCCUGUUUUGGAAUUCUCGGGUGCCAA`: “RBNS enrichment (R)” 0.566.
